Published values from different studies.
± marks the error that the study gave.
Cell line: A2780

The IC50 of CCOc1cncc(-c2ccc(NC(=O)C3(c4ccnc(NS(=O)(=O)C5CC5)n4)CCOCC3)nc2)n1 is reported as 116 nM (cell proliferation, CellTiter-Glo; 72 h).
CC(C)(C)c1nc(-c2cccc(NS(=O)(=O)c3c(F)cccc3F)c2F)c(-c2ccnc(N)n2)s1.Cc1[nH]c2ccccc2c1CCNCc1ccc(/C=C/C(=O)NO)cc1 — result for “early apoptotic cells”: 16.7 ± 3.3% (annexin V/PI flow cytometry; concentration not given, 48 h; reference: untreated).
For CC1(C)OB(c2ccc(COC(=O)N[c-]3cccc3)cc2)OC1(C)C.[Fe+2].c1cc[cH-]c1, the mRNA level was 229 ± 51.4 (qPCR, refers to: CHOP; 20 µM, 24 h, unit not given; reference: untreated).
The IC50 of C[C@@H]1CC[C@@H]([C@](O)(CNCc2cccc(F)c2)COCc2ccccc2)[C@H](OCc2ccccc2)C1 is reported as 1410 nM (cell growth or viability, MTT; 72 h).
With CC(C)c1ccc(N(C)c2ccc3c(c2)OCC[C@H]3CNc2cnccc2C(=O)O)cc1 the IC50 was 2.14 nM (cell growth or viability, ATP luminescence; 7 days).
With CC1(C)OB(c2ccc(COC(=O)N(Cc3cccc(CN4CCCCC4)c3)[c-]3cccc3)cc2)OC1(C)C.[Fe+2].c1cc[cH-]c1 the IC50 was 7000 ± 2000 nM (viability, MTT; 96 h).
C[C@@H]1CC[C@@H]([C@@](O)(CNCc2ccc(F)cc2)COCc2ccc(F)cc2)[C@H](OCc2ccc(F)cc2)C1 gave an inhibition of 95.7% (cell growth or viability, MTT; 30 µM, 72 h).
CCN(C(=O)c1cc(F)ccc1Oc1nncnc1N1CCC2(C1)CN([C@H](CCCN(C)CCOC)C(C)C)C2)C(C)C has a GI50 of > 10000 nM (cell growth or viability; 72 h).
For CNS(=O)(=O)Nc1nccc(Cc2c(C)c3ccc(Oc4ncccc4F)cc3oc2=O)c1F, the IC50 was > 1000 nM (cell viability; 7 days).
C[C@@H]1CC[C@@H]([C@](O)(COCc2ccccc2)Cn2cnc3ccccc32)[C@H](OCc2ccccc2)C1 gave an IC50 of 4320 nM (cell growth or viability, MTT; 72 h).

Excerpt of the above:
For CNS(=O)(=O)Nc1nccc(Cc2c(C)c3ccc(Oc4ncccc4F)cc3oc2=O)c1F, the IC50 was > 1000 nM (cell viability; 7 days).
